Assay results of several laboratories.
Lines come from different studies, so protocols differ. ± gives the spread as reported.
Toll-like receptor 1/2: Toll-like receptor 1/2 (Homo sapiens, UniProt O60603+Q15399)
Chain of UniProt O60603 (whole entry, looked up): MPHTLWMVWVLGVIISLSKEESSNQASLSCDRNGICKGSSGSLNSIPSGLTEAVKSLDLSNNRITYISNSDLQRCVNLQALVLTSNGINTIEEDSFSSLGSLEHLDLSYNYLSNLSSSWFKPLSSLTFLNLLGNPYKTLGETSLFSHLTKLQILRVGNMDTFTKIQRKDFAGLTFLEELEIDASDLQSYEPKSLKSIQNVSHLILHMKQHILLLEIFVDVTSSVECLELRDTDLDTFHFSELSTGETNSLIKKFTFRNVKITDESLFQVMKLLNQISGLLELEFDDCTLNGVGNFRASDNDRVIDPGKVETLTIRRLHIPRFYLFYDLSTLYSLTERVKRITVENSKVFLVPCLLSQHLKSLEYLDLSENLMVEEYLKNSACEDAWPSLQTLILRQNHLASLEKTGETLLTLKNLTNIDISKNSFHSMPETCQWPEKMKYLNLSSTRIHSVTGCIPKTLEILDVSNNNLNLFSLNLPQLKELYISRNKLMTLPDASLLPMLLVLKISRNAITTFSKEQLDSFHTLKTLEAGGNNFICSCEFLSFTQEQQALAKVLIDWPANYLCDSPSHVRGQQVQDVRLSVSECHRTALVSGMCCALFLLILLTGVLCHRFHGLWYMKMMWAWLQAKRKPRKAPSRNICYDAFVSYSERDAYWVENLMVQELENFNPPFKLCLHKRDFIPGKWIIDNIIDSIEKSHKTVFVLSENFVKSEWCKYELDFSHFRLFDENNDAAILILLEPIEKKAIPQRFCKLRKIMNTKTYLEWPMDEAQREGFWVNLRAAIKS
Chain of UniProt Q15399 (whole entry, looked up): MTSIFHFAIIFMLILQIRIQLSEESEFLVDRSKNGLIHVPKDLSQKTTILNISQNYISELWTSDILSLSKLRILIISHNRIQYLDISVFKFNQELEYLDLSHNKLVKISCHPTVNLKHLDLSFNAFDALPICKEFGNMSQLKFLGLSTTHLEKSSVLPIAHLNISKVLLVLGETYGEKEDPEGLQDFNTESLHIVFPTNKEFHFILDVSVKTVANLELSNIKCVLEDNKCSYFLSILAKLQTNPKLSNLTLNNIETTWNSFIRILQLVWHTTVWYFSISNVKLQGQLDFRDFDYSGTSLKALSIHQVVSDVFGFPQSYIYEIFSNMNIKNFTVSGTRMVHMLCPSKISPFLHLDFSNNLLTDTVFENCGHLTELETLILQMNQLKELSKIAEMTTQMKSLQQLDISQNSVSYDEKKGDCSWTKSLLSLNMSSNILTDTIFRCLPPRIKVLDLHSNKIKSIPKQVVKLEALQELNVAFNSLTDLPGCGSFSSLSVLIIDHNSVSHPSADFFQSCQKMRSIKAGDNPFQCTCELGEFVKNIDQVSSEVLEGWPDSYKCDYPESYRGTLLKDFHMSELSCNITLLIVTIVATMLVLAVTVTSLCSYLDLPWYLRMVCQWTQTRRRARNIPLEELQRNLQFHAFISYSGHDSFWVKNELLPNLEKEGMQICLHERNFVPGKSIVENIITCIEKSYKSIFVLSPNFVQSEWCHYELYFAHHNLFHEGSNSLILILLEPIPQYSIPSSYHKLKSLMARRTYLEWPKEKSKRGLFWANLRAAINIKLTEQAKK
Tumor necrosis factor receptor superfamily member 9/Nectin-4: Tumor necrosis factor receptor superfamily member 9/Nectin-4 (Homo sapiens, UniProt Q07011+Q96NY8)
Chain of UniProt Q07011 (whole entry, looked up): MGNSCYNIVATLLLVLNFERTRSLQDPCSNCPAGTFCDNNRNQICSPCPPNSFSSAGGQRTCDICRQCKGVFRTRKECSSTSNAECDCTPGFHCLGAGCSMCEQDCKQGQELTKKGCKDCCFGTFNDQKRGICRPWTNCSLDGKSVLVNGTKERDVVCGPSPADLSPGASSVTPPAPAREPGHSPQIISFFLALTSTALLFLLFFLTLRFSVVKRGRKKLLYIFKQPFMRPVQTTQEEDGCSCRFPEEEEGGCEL
Chain of UniProt Q96NY8 (whole entry, looked up): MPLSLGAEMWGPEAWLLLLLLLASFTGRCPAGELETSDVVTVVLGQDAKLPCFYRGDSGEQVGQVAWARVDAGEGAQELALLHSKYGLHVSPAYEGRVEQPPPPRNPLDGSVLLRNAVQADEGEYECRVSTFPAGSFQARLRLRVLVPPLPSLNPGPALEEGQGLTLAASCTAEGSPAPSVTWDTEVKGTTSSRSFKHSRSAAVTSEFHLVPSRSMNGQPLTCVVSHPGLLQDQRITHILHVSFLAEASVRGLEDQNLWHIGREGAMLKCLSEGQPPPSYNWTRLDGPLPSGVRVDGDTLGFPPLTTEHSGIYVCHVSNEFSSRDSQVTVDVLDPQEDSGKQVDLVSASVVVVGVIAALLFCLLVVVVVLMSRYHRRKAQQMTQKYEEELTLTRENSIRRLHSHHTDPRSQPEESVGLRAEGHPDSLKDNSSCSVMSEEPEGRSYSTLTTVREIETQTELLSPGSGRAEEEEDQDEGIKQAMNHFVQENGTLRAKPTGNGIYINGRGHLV
OR5K1 A2T/I280V/T15M/V39I/Y193C: OR5K1 (Homo sapiens, UniProt Q8NHB7, A2T/I280V/T15M/V39I/Y193C)
Chain of UniProt Q8NHB7 (whole entry, unmodified, looked up): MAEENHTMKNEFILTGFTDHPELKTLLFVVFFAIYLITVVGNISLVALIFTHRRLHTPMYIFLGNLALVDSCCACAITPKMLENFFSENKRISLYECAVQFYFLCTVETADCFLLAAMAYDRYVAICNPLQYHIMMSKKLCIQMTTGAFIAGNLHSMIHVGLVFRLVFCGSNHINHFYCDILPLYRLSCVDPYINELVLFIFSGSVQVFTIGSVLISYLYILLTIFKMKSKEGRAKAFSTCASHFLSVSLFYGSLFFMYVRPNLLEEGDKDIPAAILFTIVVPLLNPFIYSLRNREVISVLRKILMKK
Chain of UniProt Q9UBL9 (whole entry, looked up): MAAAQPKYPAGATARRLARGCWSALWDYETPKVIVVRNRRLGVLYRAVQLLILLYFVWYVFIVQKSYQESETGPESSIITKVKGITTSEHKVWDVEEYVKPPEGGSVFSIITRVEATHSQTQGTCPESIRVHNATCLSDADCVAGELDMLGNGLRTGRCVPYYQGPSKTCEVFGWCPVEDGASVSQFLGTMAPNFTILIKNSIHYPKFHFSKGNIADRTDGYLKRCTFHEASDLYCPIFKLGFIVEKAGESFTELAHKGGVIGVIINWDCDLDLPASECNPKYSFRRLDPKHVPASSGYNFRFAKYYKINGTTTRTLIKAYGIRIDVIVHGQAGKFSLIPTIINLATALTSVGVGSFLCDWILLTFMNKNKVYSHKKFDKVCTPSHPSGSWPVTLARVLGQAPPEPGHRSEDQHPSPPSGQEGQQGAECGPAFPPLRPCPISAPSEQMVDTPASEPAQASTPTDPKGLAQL
Chain of UniProt Q03181 (whole entry, looked up): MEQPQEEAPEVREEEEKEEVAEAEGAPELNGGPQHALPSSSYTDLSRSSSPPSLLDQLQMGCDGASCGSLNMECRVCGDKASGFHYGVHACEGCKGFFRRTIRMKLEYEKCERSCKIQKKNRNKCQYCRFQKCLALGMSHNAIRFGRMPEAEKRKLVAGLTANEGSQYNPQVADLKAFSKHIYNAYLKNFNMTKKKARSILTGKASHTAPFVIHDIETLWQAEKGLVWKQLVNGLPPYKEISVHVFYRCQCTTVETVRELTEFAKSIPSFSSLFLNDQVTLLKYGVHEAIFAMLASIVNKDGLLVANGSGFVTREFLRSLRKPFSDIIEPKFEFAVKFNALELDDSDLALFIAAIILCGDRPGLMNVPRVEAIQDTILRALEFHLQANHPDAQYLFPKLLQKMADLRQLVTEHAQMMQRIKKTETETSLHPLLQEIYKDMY
Chain of UniProt P35348 (whole entry, looked up): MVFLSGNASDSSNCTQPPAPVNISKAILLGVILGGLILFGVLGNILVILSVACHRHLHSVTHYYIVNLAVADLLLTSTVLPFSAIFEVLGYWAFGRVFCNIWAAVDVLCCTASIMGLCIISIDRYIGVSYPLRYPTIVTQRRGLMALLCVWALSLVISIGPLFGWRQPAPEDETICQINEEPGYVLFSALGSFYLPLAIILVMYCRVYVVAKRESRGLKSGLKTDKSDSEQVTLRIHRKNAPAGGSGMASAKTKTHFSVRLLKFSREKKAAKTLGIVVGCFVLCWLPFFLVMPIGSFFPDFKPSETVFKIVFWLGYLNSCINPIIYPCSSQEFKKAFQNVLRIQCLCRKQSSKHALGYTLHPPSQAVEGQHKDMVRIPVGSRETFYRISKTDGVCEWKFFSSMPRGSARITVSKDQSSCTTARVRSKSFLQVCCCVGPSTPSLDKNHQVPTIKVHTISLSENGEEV
Chain of UniProt P45974 (whole entry, looked up): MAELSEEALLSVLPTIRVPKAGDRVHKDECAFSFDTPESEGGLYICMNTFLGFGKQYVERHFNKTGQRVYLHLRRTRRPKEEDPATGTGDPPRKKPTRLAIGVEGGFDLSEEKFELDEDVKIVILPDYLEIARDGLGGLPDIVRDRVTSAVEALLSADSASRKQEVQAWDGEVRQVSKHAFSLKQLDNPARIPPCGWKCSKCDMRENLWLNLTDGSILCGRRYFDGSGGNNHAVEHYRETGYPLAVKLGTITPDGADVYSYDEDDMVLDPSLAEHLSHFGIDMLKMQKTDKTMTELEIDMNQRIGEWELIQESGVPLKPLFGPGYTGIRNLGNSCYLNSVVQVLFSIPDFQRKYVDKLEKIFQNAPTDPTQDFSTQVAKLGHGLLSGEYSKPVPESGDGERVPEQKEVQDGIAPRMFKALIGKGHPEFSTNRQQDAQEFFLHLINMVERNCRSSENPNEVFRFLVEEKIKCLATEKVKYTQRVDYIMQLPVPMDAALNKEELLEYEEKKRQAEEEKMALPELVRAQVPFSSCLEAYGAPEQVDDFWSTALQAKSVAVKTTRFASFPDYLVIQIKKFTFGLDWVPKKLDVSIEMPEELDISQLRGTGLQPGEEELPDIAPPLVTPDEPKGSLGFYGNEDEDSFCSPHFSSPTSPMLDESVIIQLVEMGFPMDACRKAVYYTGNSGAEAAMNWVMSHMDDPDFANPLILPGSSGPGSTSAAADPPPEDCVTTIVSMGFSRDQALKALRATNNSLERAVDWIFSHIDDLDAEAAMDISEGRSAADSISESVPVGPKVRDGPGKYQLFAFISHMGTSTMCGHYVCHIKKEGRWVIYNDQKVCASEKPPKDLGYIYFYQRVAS

`Cc1nccnc1C` has an EC50 of 770 ± 354 µM (uncharacterized protein (Vulpes vulpes, UniProt A0A3Q7SVK8); cAMP, agonist; HEK293 transfected with uncharacterized protein).
With `CNc1ccc([N+](=O)[O-])cc1-n1cnc(-c2cccc([N+](=O)[O-])c2)c1` the EC50 was greater than 100 µM (Toll-like receptor 1/2; reporter gene, agonist; HEK-Blue hTLR2; 24 h).
For `CCCC[C@@H]1NC(=O)[C@H](Cc2ccc(O)cc2)NC(=O)[C@@H]2CCCN2C(=O)[C@H](CC(=O)O)NC(=O)[C@H](C)NC(=O)[C@H](Cc2ccccc2)NC(=O)[C@@H]2CSCCC(=O)N3CN(CN(C3)C(=O)CCSC[C@@H](C(=O)N[C@@H](CNC(=O)CCc3cn(CCOCCOCCOCCOCCOCCOCCOCCOCCOCCOCCOCCOCCC(=O)NCCC(=O)N(C)CC(=O)N(C)CC(=O)N(C)CC(=O)N(C)CC(=O)N(C)CC(=O)N(C)CC(=O)N(C)CC(=O)N(C)CC(=O)N(C)CC(=O)N(C)CC(=O)NCCCC[C@@H]4NC(=O)[C@H](Cc5cccc6ccccc56)NC(=O)[C@@H]5CCCN5C(=O)[C@@H](NC(C)=O)CSCCC(=O)N5CN6CN(C5)C(=O)CCSC[C@H](NC4=O)C(=O)N[C@@H](CCSC)C(=O)N[C@@H](CCCCNC(=N)N)C(=O)N[C@@H](CC(=O)O)C(=O)N[C@@H](Cc4c[nH]c5ccccc45)C(=O)N[C@@H](CO)C(=O)N[C@@H]([C@@H](C)O)C(=O)N4CCC[C@H]4C(=O)N4C[C@H](O)C[C@H]4C(=O)N[C@@H](Cc4c[nH]c5ccccc45)C(=O)N[C@H](C(N)=O)CSCCC6=O)nn3)C(N)=O)NC1=O)C(=O)CCSC[C@H](NC(C)=O)C(=O)N[C@@H](CC(C)(C)C)C(=O)N1CCC[C@H]1C(=O)N[C@@H](CCC(=O)O)C(=O)N[C@H](C)C(=O)N1CCC[C@H]1C(=O)N[C@@H](Cc1ccc(O)cc1)C(=O)N2`, the EC50 was 0.00108 µM (Tumor necrosis factor receptor superfamily member 9/Nectin-4; reporter gene, agonist; HT-1376 coculture with reporter cells).
For `CCc1nccnc1CC`, the EC50 was 492 ± 15.5 µM (OR5K1 A2T/I280V/T15M/V39I/Y193C; cAMP, agonist; HEK293 transfected with OR5K1).
The EC50 of `CCCC[C@@H]1NC(=O)[C@H](Cc2ccc(O)cc2)NC(=O)[C@@H]2CCCN2C(=O)[C@H](CC(=O)O)NC(=O)[C@H](C)NC(=O)[C@H](Cc2ccccc2)NC(=O)[C@@H]2CSCCC(=O)N3CN(CN(C3)C(=O)CCSC[C@@H](C(=O)N[C@@H](C)C(N)=O)NC1=O)C(=O)CCSC[C@H](NC(C)=O)C(=O)N[C@@H](CC(C)(C)C)C(=O)N1CCC[C@H]1C(=O)N[C@@H](CCCCNC(=O)CCc1cn(CCOCCOCCOCCOCCOCCC(=O)N[C@H]3CSCCC(=O)N4CN5CN(C4)C(=O)CCSC[C@H](NC(=O)[C@@H](CC(=O)O)NC(=O)[C@H](Cc4cccc6ccccc46)NC(=O)[C@@H]4CCCN4C3=O)C(=O)N[C@@H](CCSC)C(=O)N[C@@H](CCCCNC(=N)N)C(=O)N[C@@H](CC(=O)O)C(=O)N[C@@H](Cc3c[nH]c4ccccc34)C(=O)N[C@@H](CO)C(=O)N[C@@H]([C@@H](C)O)C(=O)N3CCC[C@H]3C(=O)N3C[C@H](O)C[C@H]3C(=O)N[C@@H](Cc3c[nH]c4ccccc34)C(=O)N[C@H](C(N)=O)CSCCC5=O)nn1)C(=O)N[C@H](C)C(=O)N1CCC[C@H]1C(=O)N[C@@H](Cc1ccc(O)cc1)C(=O)N2` is reported as 0.00317 µM (Tumor necrosis factor receptor superfamily member 9/Nectin-4; reporter gene, agonist; HT-1376 coculture with reporter cells).
`CNc1ccc([N+](=O)[O-])cc1-n1cnc(-c2ccccc2)c1` has an EC50 of greater than 100 µM (Toll-like receptor 1/2; reporter gene, agonist; HEK-Blue hTLR2; 24 h).
With `CCCC[C@@H]1NC(=O)[C@H](Cc2ccc(O)cc2)NC(=O)[C@H](C)N(C)C(=O)[C@H](CC(=O)O)NC(=O)[C@H](C)NC(=O)[C@H](Cc2ccccc2)NC(=O)[C@@H]2CSCCC(=O)N3CN(CN(C3)C(=O)CCSC[C@H](NC(C)=O)C(=O)N[C@@H](CC(C)(C)C)C(=O)N3CCC[C@H]3C(=O)N[C@@H](CCC(=O)O)C(=O)N[C@H](CCCCNC(=O)CCc3cn(CCOCCOCCOCCN(CCOCCOCCOCCC(=O)N[C@H]4CSCCC(=O)N5CN6CN(C5)C(=O)CCSC[C@H](NC(=O)[C@@H](CC(=O)O)NC(=O)[C@H](Cc5cccc7ccccc57)NC(=O)[C@@H]5CCCN5C4=O)C(=O)N[C@@H](CCSC)C(=O)N[C@@H](CCCCNC(=N)N)C(=O)N[C@@H](CC(=O)O)C(=O)N[C@@H](Cc4c[nH]c5ccccc45)C(=O)N[C@@H](CO)C(=O)N[C@@H]([C@@H](C)O)C(=O)N4CCC[C@H]4C(=O)N4C[C@H](O)C[C@H]4C(=O)N[C@@H](Cc4c[nH]c5ccccc45)C(=O)N[C@H](C(N)=O)CSCCC6=O)CCOCCOCCOCCn4cc(CCC(=O)NCCCC[C@H]5NC(=O)[C@H](CCC(=O)O)NC(=O)[C@@H]6CCCN6C(=O)[C@H](CC(C)(C)C)NC(=O)[C@@H](NC(C)=O)CSCCC(=O)N6CN7CN(C6)C(=O)CCSC[C@H](NC(=O)[C@H](Cc6ccc(O)cc6)NC(=O)[C@@H]6CCCN6C5=O)C(=O)N[C@@H](Cc5ccccc5)C(=O)N[C@@H](C)C(=O)N[C@@H](CC(=O)O)C(=O)N(C)[C@@H](C)C(=O)N[C@@H](Cc5ccc(O)cc5)C(=O)N[C@@H](CCCC)C(=O)N[C@H](C(N)=O)CSCCC7=O)nn4)nn3)C(=O)N3CCC[C@H]3C(=O)N[C@@H](Cc3ccc(O)cc3)C(=O)N2)C(=O)CCSC[C@@H](C(N)=O)NC1=O` the EC50 was 0.00173 µM (Tumor necrosis factor receptor superfamily member 9/Nectin-4; reporter gene, agonist; HT-1376 coculture with reporter cells).
With `O=C(Nc1ccn(Cc2ccc(O)cc2C(F)(F)F)n1)c1c(F)cccc1F` the EC50 was greater than 10 µM (TRPA1 (Homo sapiens, UniProt O75762); ion channel activity, agonist; cells overexpressing TRPA1; human receptor).
`CCO[C@H](COc1ccc(C(F)(F)F)cc1)CSc1ccc(OCC(=O)O)c(C)c1` gave an EC50 of 0.03 µM (PPARD (Homo sapiens, UniProt Q03181); reporter gene, agonist, luciferase reporter; serum-free).
The EC50 of `Cn1cc2c(C(=O)O)ccc(NS(=O)(=O)c3ccc(OCC4CCC4)c(Cl)c3)c2n1` is reported as greater than 10 µM (ADRA1A (Homo sapiens, UniProt P35348); agonist).
The EC50 of `CCCC[C@@H]1NC(=O)[C@H](Cc2ccc(O)cc2)NC(=O)[C@@H]2CCCN2C(=O)[C@H](CC(=O)O)NC(=O)[C@H](C)NC(=O)[C@H](Cc2ccccc2)NC(=O)[C@@H]2CSCCC(=O)N3CN(CN(C3)C(=O)CCSC[C@@H](C(=O)N[C@@H](C)C(N)=O)NC1=O)C(=O)CCSC[C@H](NC(C)=O)C(=O)N[C@@H](CC(C)(C)C)C(=O)N1CCC[C@H]1C(=O)N[C@@H](CCC(=O)O)C(=O)N[C@H](CCCCNC(=O)CCc1cn(CCOCCOCCOCCOCCOCCOCCOCCOCCOCCOCCNC(=O)CCOCCN(CCOCCC(=O)NCCOCCOCCOCCOCCOCCOCCOCCOCCOCCOCCn3cc(CCC(=O)NCCCC[C@H]4NC(=O)[C@H](CCC(=O)O)NC(=O)[C@@H]5CCCN5C(=O)[C@H](CC(C)(C)C)NC(=O)[C@@H](NC(C)=O)CSCCC(=O)N5CN6CN(C5)C(=O)CCSC[C@H](NC(=O)[C@H](Cc5ccc(O)cc5)NC(=O)[C@@H]5CCCN5C4=O)C(=O)N[C@@H](Cc4ccccc4)C(=O)N[C@@H](C)C(=O)N[C@@H](CC(=O)O)C(=O)N4CCC[C@H]4C(=O)N[C@@H](Cc4ccc(O)cc4)C(=O)N[C@@H](CCCC)C(=O)N[C@H](C(=O)N[C@@H](C)C(N)=O)CSCCC6=O)nn3)CCOCCC(=O)NCCOCCOCCOCCOCCOCCOCCOCCOCCOCCOCCn3cc(CCC(=O)N[C@H]4CSCCC(=O)N5CN6CN(C5)C(=O)CCSC[C@H](NC(=O)[C@@H](CC(=O)O)NC(=O)[C@H](Cc5cccc7ccccc57)NC(=O)[C@@H]5CCCN5C4=O)C(=O)N[C@@H](CCSC)C(=O)N[C@@H](CCCCNC(=N)N)C(=O)N[C@@H](CC(=O)O)C(=O)N[C@@H](Cc4c[nH]c5ccccc45)C(=O)N[C@@H](CO)C(=O)N[C@@H]([C@@H](C)O)C(=O)N4CCC[C@H]4C(=O)N4C[C@H](O)C[C@H]4C(=O)N[C@@H](Cc4c[nH]c5ccccc45)C(=O)N[C@H](C(N)=O)CSCCC6=O)nn3)nn1)C(=O)N1CCC[C@H]1C(=O)N[C@@H](Cc1ccc(O)cc1)C(=O)N2` is reported as 0.00014 µM (Tumor necrosis factor receptor superfamily member 9/Nectin-4; reporter gene, agonist; HT-1376 reporter coculture).
With `Nc1ncnc2c1ncn2[C@@H]1O[C@H](COP(=O)(O)OP(=O)(O)OP(=O)(O)O)[C@@H](O)[C@H]1O` the EC50 was 9.09 µM (P2X purinoceptor 2 (P2RX2, Homo sapiens, UniProt Q9UBL9); ion current, agonist, two-electrode voltage clamp; Xenopus oocytes).
With `O=[N+]([O-])c1ccc(-c2cn(-c3cc([N+](=O)[O-])ccc3NCc3ccccc3)cn2)cc1` the EC50 was greater than 100 µM (Toll-like receptor 1/2; reporter gene, agonist; HEK-Blue hTLR2; 24 h).
With `CC(=O)c1cc([N+](=O)[O-])c(Sc2cccc(Cl)c2Cl)s1` the EC50 was greater than 50 µM (USP5 (Homo sapiens, UniProt P45974); enzyme activity, inhibitor).
With `CCCC[C@@H]1NC(=O)[C@H](Cc2ccc(O)cc2)NC(=O)[C@@H]2CCCN2C(=O)[C@H](CC(=O)O)NC(=O)[C@H](C)NC(=O)[C@H](Cc2ccccc2)NC(=O)[C@@H]2CSCCC(=O)N3CN(CN(C3)C(=O)CCSC[C@@H](C(=O)N[C@@H](C)C(N)=O)NC1=O)C(=O)CCSC[C@H](NC(C)=O)C(=O)N[C@@H](CC(C)(C)C)C(=O)N1CCC[C@H]1C(=O)N[C@@H](CCC(=O)O)C(=O)N[C@H](CCCCNC(=O)CCOCCOCCOCCOCCOCCOCCOCCOCCOCCOCCOCCOCCn1cc(CCC(=O)NCCC(=O)N(C)CC(=O)N(C)CC(=O)N(C)CC(=O)N(C)CC(=O)N(C)CC(=O)N(C)CC(=O)N(C)CC(=O)N(C)CC(=O)N(C)CC(=O)N(C)CC(=O)N[C@H]3CSCCC(=O)N4CN5CN(C4)C(=O)CCSC[C@H](NC(=O)[C@@H](CC(=O)O)NC(=O)[C@H](Cc4cccc6ccccc46)NC(=O)[C@@H]4CCCN4C3=O)C(=O)N[C@@H](CCSC)C(=O)N[C@@H](CCCCNC(=N)N)C(=O)N[C@@H](CC(=O)O)C(=O)N[C@@H](Cc3c[nH]c4ccccc34)C(=O)N[C@@H](CO)C(=O)N[C@@H]([C@@H](C)O)C(=O)N3CCC[C@H]3C(=O)N3C[C@H](O)C[C@H]3C(=O)N[C@@H](Cc3c[nH]c4ccccc34)C(=O)N[C@H](C(N)=O)CSCCC5=O)nn1)C(=O)N1CCC[C@H]1C(=O)N[C@@H](Cc1ccc(O)cc1)C(=O)N2` the EC50 was 0.0021 µM (Tumor necrosis factor receptor superfamily member 9/Nectin-4; reporter gene, agonist; HT-1376 reporter coculture).
`Cc1cncc(C)n1` gave an EC50 of 554 ± 160 µM (OR5K1 A2T/I280V/T15M/V39I/Y193C; cAMP, agonist; HEK293 transfected with OR5K1).

Some of these lines once more:
The EC50 of `CCCC[C@@H]1NC(=O)[C@H](Cc2ccc(O)cc2)NC(=O)[C@@H]2CCCN2C(=O)[C@H](CC(=O)O)NC(=O)[C@H](C)NC(=O)[C@H](Cc2ccccc2)NC(=O)[C@@H]2CSCCC(=O)N3CN(CN(C3)C(=O)CCSC[C@@H](C(=O)N[C@@H](C)C(N)=O)NC1=O)C(=O)CCSC[C@H](NC(C)=O)C(=O)N[C@@H](CC(C)(C)C)C(=O)N1CCC[C@H]1C(=O)N[C@@H](CCCCNC(=O)CCc1cn(CCOCCOCCOCCOCCOCCC(=O)N[C@H]3CSCCC(=O)N4CN5CN(C4)C(=O)CCSC[C@H](NC(=O)[C@@H](CC(=O)O)NC(=O)[C@H](Cc4cccc6ccccc46)NC(=O)[C@@H]4CCCN4C3=O)C(=O)N[C@@H](CCSC)C(=O)N[C@@H](CCCCNC(=N)N)C(=O)N[C@@H](CC(=O)O)C(=O)N[C@@H](Cc3c[nH]c4ccccc34)C(=O)N[C@@H](CO)C(=O)N[C@@H]([C@@H](C)O)C(=O)N3CCC[C@H]3C(=O)N3C[C@H](O)C[C@H]3C(=O)N[C@@H](Cc3c[nH]c4ccccc34)C(=O)N[C@H](C(N)=O)CSCCC5=O)nn1)C(=O)N[C@H](C)C(=O)N1CCC[C@H]1C(=O)N[C@@H](Cc1ccc(O)cc1)C(=O)N2` is reported as 0.00317 µM (Tumor necrosis factor receptor superfamily member 9/Nectin-4; reporter gene, agonist; HT-1376 coculture with reporter cells).
